Measured values of several laboratories.
Each numbered part is a random draw from the data of one study; scales do not carry over between parts. Changes are numbered by the printed parent chain.

Set 1 — technique: universal PBM; form: double-stranded DNA, one strand shown; medium: in vitro; concentration: not given; direction: higher = stronger binding
Target: Sal-like protein 4, full length isoform B (SALL4, Homo sapiens, UniProt Q9UJQ4-2, residues 1-616)
Notes: 8-mer, flanks averaged, mean of replicates
Target sequence (chain): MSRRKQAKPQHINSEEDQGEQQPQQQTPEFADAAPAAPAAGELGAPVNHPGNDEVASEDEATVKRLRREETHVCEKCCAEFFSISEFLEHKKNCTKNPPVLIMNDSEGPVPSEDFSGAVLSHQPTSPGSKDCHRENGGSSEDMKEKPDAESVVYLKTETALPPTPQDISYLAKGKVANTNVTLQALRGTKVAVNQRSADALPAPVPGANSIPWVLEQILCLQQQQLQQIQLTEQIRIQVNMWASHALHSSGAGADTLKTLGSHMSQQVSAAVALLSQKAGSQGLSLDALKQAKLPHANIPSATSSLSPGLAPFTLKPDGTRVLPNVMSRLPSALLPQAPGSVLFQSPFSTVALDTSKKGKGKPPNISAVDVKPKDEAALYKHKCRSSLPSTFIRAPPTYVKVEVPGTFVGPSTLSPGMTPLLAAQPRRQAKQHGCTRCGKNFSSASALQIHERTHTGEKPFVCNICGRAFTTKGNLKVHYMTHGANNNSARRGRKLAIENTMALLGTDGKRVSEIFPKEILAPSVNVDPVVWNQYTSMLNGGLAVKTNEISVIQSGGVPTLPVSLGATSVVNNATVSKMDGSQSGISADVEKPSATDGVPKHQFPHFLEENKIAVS
`GCTAAAAC` has an E-score of -0.0547.
For `ATAGAGAA`, the E-score was 0.215.
For `AGCAGGCC`, the E-score was -0.296.
`AAGGGTAA` gave an E-score of 0.0399.
With `CCTTAAGA` the E-score was 0.126.
With `GGCTGAGA` the E-score was -0.121.
The E-score of `CCACTTAA` is reported as 0.117.
`CATACTGC` gave an E-score of -0.0904.

Set 2 — target: CCNA1, cyclin fold, Cln2 fusion (human); technique: yeast growth competition, sequencing; medium: yeast; notes: weak parent motif; reference: not given; direction: higher = stronger binding
Starting sequence: CDKN1A docking peptide (human); SKACRRLFGPVDS; partner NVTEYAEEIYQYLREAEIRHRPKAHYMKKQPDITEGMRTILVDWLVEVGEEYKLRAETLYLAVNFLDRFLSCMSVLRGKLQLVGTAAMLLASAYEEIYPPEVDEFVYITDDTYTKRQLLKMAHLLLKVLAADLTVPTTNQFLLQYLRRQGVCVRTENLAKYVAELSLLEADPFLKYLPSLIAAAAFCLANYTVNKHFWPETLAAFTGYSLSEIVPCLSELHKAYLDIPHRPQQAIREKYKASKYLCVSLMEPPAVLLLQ
Under “normalised enrichment score”, `SKACRELFGPVDS [R6E]` is recorded as 0.297.
`SAACRRLFGPVDS [K2A]`: “normalised enrichment score” 0.432.
`SKACRRLFIPVDS [G9I]`: “normalised enrichment score” 0.708.
`SKACRYLFGPVDS [R6Y]`: “normalised enrichment score” 0.25.
`SKACRKLFGPVDS [R6K]` — result for “normalised enrichment score”: 0.681.
Under “normalised enrichment score”, `STACRRLFGPVDS [K2T]` is recorded as 0.581.
`SKACVRLFGPVDS [R5V]`: “normalised enrichment score” -0.0309.
`SKACRNLFGPVDS [R6N]`: “normalised enrichment score” 0.864.
Under “normalised enrichment score”, `SKACNRLFGPVDS [R5N]` is recorded as 0.199.

Set 3 — technique: RNA Bind-n-Seq; form: RNA; medium: in vitro; concentration: 200 nM; notes: whole 134-nt RNA, ends assumed; added: 150 mM KCl; reference: input library; direction: higher = stronger binding
Target: Ras GTPase-activating protein-binding protein 1, full length (G3BP1, Homo sapiens, UniProt Q13283)
Sequence of UniProt Q13283 (whole entry, looked up): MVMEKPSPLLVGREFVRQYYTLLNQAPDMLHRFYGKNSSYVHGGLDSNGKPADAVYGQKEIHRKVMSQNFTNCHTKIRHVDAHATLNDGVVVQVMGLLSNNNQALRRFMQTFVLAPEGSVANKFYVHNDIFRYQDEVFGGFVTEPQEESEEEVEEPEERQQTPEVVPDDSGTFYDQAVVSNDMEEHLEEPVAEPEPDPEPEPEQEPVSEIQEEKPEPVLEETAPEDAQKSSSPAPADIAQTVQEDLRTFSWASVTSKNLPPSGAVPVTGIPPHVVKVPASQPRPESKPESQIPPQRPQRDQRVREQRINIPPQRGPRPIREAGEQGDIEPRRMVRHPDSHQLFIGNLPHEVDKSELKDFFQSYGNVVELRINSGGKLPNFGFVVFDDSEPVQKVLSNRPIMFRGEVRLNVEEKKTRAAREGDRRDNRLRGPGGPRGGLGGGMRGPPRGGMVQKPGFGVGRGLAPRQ
Shared flanks, not repeated: GGGAGUUCUACAGUCCGACGAUC … UGGAAUUCUCGGGUGUCAAGG
`CAAGUCCUGUGCUACACAUCGUAUGUACCGAAUCGGUUUUGGGUUUUGGUUUUGGAAAGUAUUAUGUUACGCCGUUCGGAUCUGCACUUC` gave a log2 enrichment of -1.04.
The log2 enrichment of `AAGUCCUGUGCUACACAUCGUAUGUACCGAAUCGGGUGGGUUUUUUUGGGAAAGGGAAAGUAUUAUGUUACGCCGUUCGGAUCUGCACUU` is reported as -0.052.
The log2 enrichment of `UGGGAGGUGGAUUUUGUUUAUUUUUUUAGCGCAUUUCCAGGGGUGGGAAUUUUUUUUUAAUAUGUGUCAUGAAUAAAGUUGUUUUUGAAA` is reported as 0.33.
With `UCAAGUCCUGUGCUACACAUCGUAUGUACCGAAUCGGGAAAAAGGGAGGGAGGGAAAGUAUUAUGUUACGCCGUUCGGAUCUGCACUUCC` the log2 enrichment was 1.06.
`UGGCCCUGGUGGCAUGCGGGGAGGAAGAGGUGGCCUCAUGGAUCGUGGUGGUCCCGGUGGAAUGUUCAGAGGUGGCAGUGGUGGAGACAG` has a log2 enrichment of 0.246.
The log2 enrichment of `UAGGUAAGAAAGUACUCAUUGUCUAUGCACACCAGGAACCCAAGUCUUUCAACGGAUCCUUGAAGAAUGUGGCUGUAGAUGAACUGAGCA` is reported as 1.23e-05.
For `UAACUUUAGAGGAGGAUCGGAUGGAUAUGGCAGUGGACGUGGAUUUGGGGAUGGCUAUAAUGGGUAUGGAGGAGGACCUGGAGGUGGCAA`, the log2 enrichment was 0.429.

Other studies, line by line
`PhoQ, residues 284 288 289 292 302 303 SIHMAM` gave a fold induction of 16.2 (PhoP, residues 12 14 15 18 19 AGCRL (Escherichia coli, UniProt P23836); Sort-seq, refers to: YFP reporter; E. coli; PhoQ-PhoP variant library, added: 10 µM Mg2+; reference: high Mg2+ state, higher = stronger signaling).
